Experimental data from different studies.
Each line is one published result; not all experiments were run side by side.
Organism: Candida albicans

SMILES = CC[C@H](C)[C@H](NC(=O)[C@H](CC(C)C)NC(=O)[C@H](CCC(N)=O)NC(=O)[C@H](CO)NC(=O)[C@H](CCCNC(=N)N)NC(=O)[C@@H](N)CO)C(=O)N[C@H](C(=O)N[C@@H](Cc1c[nH]cn1)C(=O)N[C@@H](CCC(N)=O)C(=O)N[C@@H](CCCNC(=N)N)C(=O)N[C@@H](CC(C)C)C(=O)N[C@@H](Cc1ccccc1)C(N)=O)C(C)C; test = broth microdilution; system = RPMI MOPS-buffered; MIC = > 400 µg/mL
SMILES = CC(C)[C@@H](CC(=O)N[C@@H](CCCCN)CC(N)=O)NC(=O)[C@H]1CCCC[C@@H]1NC(=O)C[C@H](CCCCN)NC(=O)C[C@@H](NC(=O)[C@H]1CCCC[C@@H]1NC(=O)C[C@H](CCCCN)NC(=O)C[C@@H](NC(=O)[C@H]1CCCC[C@@H]1N)C(C)C)C(C)C; test = broth microdilution; system = SC5314; conditions = 48 h, pH 7.2, 35 °C; MIC = 8 µg/mL
SMILES = CC[C@H](C)[C@H](NC(=O)[C@@H](NC(=O)[C@H](CCCCN)NC(=O)[C@H](CC(=O)O)NC(=O)[C@H](CCCCN)NC(=O)[C@H](Cc1ccccc1)NC(=O)[C@H](Cc1ccccc1)NC(=O)[C@H](CO)NC(=O)[C@H](CCCCN)NC(=O)[C@H](CCSC)NC(=O)[C@H](CCCCN)NC(=O)[C@H](CCCCN)NC(=O)[C@H](Cc1c[nH]c2ccccc12)NC(=O)[C@@H](N)Cc1ccccc1)C(C)C)C(=O)N1CCC[C@H]1C(=O)N[C@@H](CCCCN)C(=O)N[C@H](C(=O)N[C@@H](CCC(N)=O)C(=O)N[C@@H](CCC(N)=O)C(=O)N[C@@H](C)C(=O)N[C@@H](Cc1ccc(O)cc1)C(=O)N[C@@H](CO)C(=O)N[C@@H](CC(C)C)C(=O)N[C@@H](Cc1ccc(O)cc1)C(=O)N[C@@H](CC(N)=O)C(=O)N[C@@H](CCCCN)C(=O)N[C@@H](CC(C)C)C(=O)N[C@@H](CCC(N)=O)C(=O)N[C@@H](Cc1c[nH]cn1)C(=O)N[C@@H](CCCCN)C(=O)N[C@@H](CC(C)C)C(N)=O)C(C)C; test = ATP luminescence; system = FH2173; conditions = 48 h; MIC = > 50 µM
SMILES = CC[C@H](C)[C@H](NC(=O)[C@H](CC(C)C)NC(=O)[C@H](CCC(=O)O)NC(=O)[C@H](CO)NC(=O)[C@H](CCCNC(=N)N)NC(=O)[C@@H](N)CO)C(=O)N[C@H](C(=O)N[C@@H](CCCNC(=N)N)C(=O)N[C@@H](CCC(N)=O)C(=O)N[C@@H](CCCNC(=N)N)C(=O)N[C@@H](CC(C)C)C(=O)N[C@@H](Cc1ccccc1)C(N)=O)C(C)C; test = broth microdilution; system = RPMI MOPS-buffered; MIC = > 400 µg/mL
SMILES = O.O=[N+]([O-])[O-].O=c1cc[nH]c(=S)[nH]1.[Ag+].c1ccc(P(c2ccccc2)c2ccccc2)cc1.c1ccc(P(c2ccccc2)c2ccccc2)cc1; test = agar dilution; system = MTCC 227, Mueller Hinton agar; conditions = 24 h, 25 °C; MIC = 10 µg/mL
SMILES = CC(=O)OCc1cc(-c2nc3ccccc3n(-c3ccc([N+](=O)[O-])cc3[N+](=O)[O-])c2=O)nn1-c1ccccc1; test = microbial growth; conditions = clinical isolate; MIC = > 500 µg/mL
SMILES = CC1C(=NNC(=O)c2ccncc2)C(C)C(c2ccc(Br)cc2)OC1c1ccc(Br)cc1 (stereo not drawn); test = microbial growth; MIC = 100 µg/mL
SMILES = CC[C@H](C)[C@@H]1NC(=O)[C@H](CC(C)C)NC(=O)[C@@H](NC(=O)[C@H](CO)NC(=O)[C@H](CCCNC(=N)N)NC(=O)[C@@H](N)CO)CSSC[C@@H](C(=O)N[C@@H](CCC(N)=O)C(=O)N[C@@H](CCCNC(=N)N)C(=O)N[C@@H](CC(C)C)C(=O)N[C@@H](Cc2ccccc2)C(N)=O)NC(=O)[C@H](C(C)C)NC1=O; test = broth microdilution; system = ATCC 24433; MIC = 5 µg/mL
SMILES = CC[C@H](C)[C@H](NC(=O)[C@H](CCC(N)=O)NC(=O)[C@@H]1CCCN1C(=O)[C@@H](NC(=O)[C@@H](NC(=O)[C@H](Cc1ccc(O)cc1)NC(=O)[C@H](C)NC(=O)[C@H](C)NC(=O)[C@H](CC(C)C)NC(=O)[C@H](CCCCN)NC(=O)[C@H](C)NC(=O)[C@H](CC(C)C)NC(=O)[C@H](CC(C)C)NC(=O)CNC(=O)[C@@H](NC(=O)[C@@H](N)Cc1ccccc1)C(C)C)C(C)C)[C@@H](C)CC)C(=O)N[C@H](C(=O)N[C@@H](CCCCN)C(=O)N[C@@H](CCCNC(=N)N)C(=O)N[C@@H](Cc1ccccc1)C(=O)N[C@@H](CCC(N)=O)C(=O)N[C@@H](CCCCN)C(=O)N[C@@H](CCCCN)C(=O)N[C@@H](CCCCN)C(N)=O)C(C)C; test = ATP luminescence; system = FH2173; conditions = 48 h; MIC = 12.5 to 25 µM
SMILES = CC[C@@H](CC(=O)N[C@@H](CCCNC(=N)N)CC(=O)N[C@H](CC(=O)N[C@@H](CC)CC(=O)N[C@@H](CCCNC(=N)N)CC(=O)N[C@H](CC(=O)N[C@@H](CC)CC(=O)N[C@@H](CCCNC(=N)N)CC(N)=O)[C@@H](C)CC)[C@@H](C)CC)NC(=O)C[C@@H](NC(=O)C[C@@H](N)Cc1ccc(O)cc1)[C@@H](C)CC; test = broth microdilution; system = SC5314; conditions = 48 h, pH 7.2, 35 °C; MIC = 16 µg/mL
SMILES = N#CC1COC(=O)N1/N=C/c1ccc([N+](=O)[O-])o1 (stereo not drawn); test = microbial growth, broth dilution; system = ATCC14053; conditions = 18 h; MIC = > 50 µg/mL
SMILES = COc1cc2c(=O)c(C(=O)NCCNCCO)cn(Cc3ccccc3)c2cc1OCc1cccc(Cl)c1; system = ATCC 90028; scale = ≥80% growth inhibition; MIC = > 32 µg/mL
SMILES = CC[C@H](C)[C@H](NC(=O)CNC(=O)[C@H](CCCCN)NC(=O)[C@H](C)NC(=O)[C@H](CCC(=O)O)NC(=O)[C@H](Cc1ccccc1)NC(=O)[C@H](CO)NC(=O)[C@H](CC(C)C)NC(=O)[C@@H](NC(=O)[C@H](CC(=O)O)NC(=O)[C@H](C)NC(=O)[C@@H](NC(=O)[C@@H](N)C(C)C)[C@@H](C)O)C(C)C)C(=O)N[C@@H](C)C(=O)N[C@H](C(=O)N[C@@H](CC(N)=O)C(=O)N[C@@H](Cc1c[nH]cn1)C(=O)N[C@@H](CO)C(=O)N[C@@H](C)C(=O)N[C@H]1CSSC[C@@H]2NC(=O)[C@H](C(C)C)NC(=O)CNC(=O)[C@H](CC(N)=O)NC(=O)[C@H](CCC(N)=O)NC(=O)[C@H](C)NC(=O)[C@H](CO)NC(=O)CNC(=O)CNC(=O)[C@H](CCCCN)NC(=O)[C@H](CCCCN)NC(=O)[C@H](CCCNC(=N)N)NC(=O)[C@H](CC(C)C)NC(=O)[C@H](C)NC(=O)[C@H]([C@@H](C)CC)NC(=O)[C@H](CSSC[C@@H](C(=O)N[C@@H](CCCNC(=N)N)C(=O)N[C@@H](CC(N)=O)C(=O)O)NC(=O)[C@H](C(C)C)NC2=O)NC(=O)[C@H](Cc2c[nH]cn2)NC(=O)[C@H](CC(C)C)NC(=O)[C@H](C)NC1=O)C(C)C; test = broth microdilution; system = ATCC 90028; conditions = 28 °C; MIC = 12.5 µM
SMILES = CC(C)C[C@H](NC(=O)[C@H](CCCNC(=N)N)NC(=O)[C@H](CCC(N)=O)NC(=O)[C@H](Cc1c[nH]cn1)NC(=O)[C@@H](NC(=O)[C@H](CCCCN)NC(=O)[C@H](CC(C)C)NC(=O)[C@H](CCC(=O)O)NC(=O)[C@H](CO)NC(=O)[C@H](CCCNC(=N)N)NC(=O)[C@@H](N)CO)C(C)C)C(=O)N[C@@H](Cc1ccccc1)C(N)=O; test = broth microdilution; system = RPMI MOPS-buffered; MIC = > 400 µg/mL
SMILES = CC(C)C[C@H](NC(=O)[C@H](C)NC(=O)CNC(=O)[C@@H](NC(=O)[C@@H](NC(=O)[C@H](CCCCN)NC(=O)[C@H](CCCCN)NC(=O)[C@H](CC(C)C)NC(=O)[C@H](CC(C)C)NC(=O)[C@H](CCCCN)NC(=O)[C@H](CC(C)C)NC(=O)[C@H](CC(C)C)NC(=O)[C@@H](N)CCCCN)C(C)C)C(C)C)C(=O)NCC(N)=O; test = broth microdilution OD530; system = ATCC 90028, yeast nitrogen base; conditions = 24 h, 35 °C; MIC = 22 µM
